Measurements pooled from the literature.
Protocols differ between the studies behind these lines. ± gives the spread as reported.

SMILES | system | setting | quantity | value
Cc1ncc(CCc2ccc3c(c2)c(=O)c(C(N)=O)cn3-c2ccc(F)cc2)cn1 | rat, brain homogenate |  | fraction unbound | 0.16
Cc1cc(NC(=O)c2cccc(NC(=O)C3=CC(C)(C)CCC3=O)c2)ccc1Nc1nccc(-c2cccnc2)n1 | rat plasma | 1 µM, 5 min | compound remaining | 103%
NC(=O)c1cn(-c2ccc(F)cc2)c2ccc(NCc3cccnc3)cc2c1=O | rat, plasma | iv, 0.2 mg/kg, 15 min, cassette dosing | concentration | 83 nM
Cc1c(-c2ccccc2)nn2c(=O)cc(-c3cccc(-c4nnn[nH]4)c3)[nH]c12 | human liver microsomes | 1 µM, 30 min | remaining compound | 88.4%
Cc1n[nH]c(C)c1CCOC(=O)c1cccc2c1oc(=O)n2C | BALB/c mouse, plasma | intravenous, 2 mg/kg | clearance | 4.38 mL/min/kg
O=C(OC(C(F)(F)F)C(F)(F)F)N1Cc2ccc(Br)cc2C1 | male CD-1 mouse, brain | intravenous, 2 mg/kg, 15 min, cassette dosing | brain concentration | 0.192 ± 0.032 µg/g
CC(C)n1nnc(-c2cc(O)cc(Nc3ncnn4ccc(CN5CCC(N)CC5)c34)c2)n1 | mouse, plasma | subcutaneous, 30 mg/kg, 90 min | total plasma concentration | 5.4 ± 1.1 µM
Nc1ncc(-c2ccc3ncnc(N4CCc5cc(F)c(Cl)cc54)c3c2)cn1 | CD1 mouse, plasma | intravenous, 5 mg/kg | AUC(0-t) | 762 ng·h/mL
COc1ccc(CC(=O)OCc2ccc(-n3cccn3)cc2)cc1F | BALB/c mouse, plasma | oral, 10 mg/kg | Tmax | 1.12 h
CCCSc1nc(N[C@@H]2C[C@H]2c2ccc(F)c(F)c2)c2nnn([C@@H]3C[C@H](O)[C@@H](O)[C@H]3O)c2n1 | rat, female, plasma | oral, 20 mg/kg/day ticagrelor, week 52 | AUC | 9.3 µM·h

Excerpt of the above:
SMILES | system | setting | quantity | value
CCCSc1nc(N[C@@H]2C[C@H]2c2ccc(F)c(F)c2)c2nnn([C@@H]3C[C@H](O)[C@@H](O)[C@H]3O)c2n1 | rat, female, plasma | oral, 20 mg/kg/day ticagrelor, week 52 | AUC | 9.3 µM·h
